Measurements pooled from the literature.
Compare with care: the assays were run in different laboratories. ± gives the spread as reported. In brackets after ≈: the same amount, converted by molar mass. Where no end group is shown, it is not given here.
Chain of UniProt O60656 (whole entry, looked up): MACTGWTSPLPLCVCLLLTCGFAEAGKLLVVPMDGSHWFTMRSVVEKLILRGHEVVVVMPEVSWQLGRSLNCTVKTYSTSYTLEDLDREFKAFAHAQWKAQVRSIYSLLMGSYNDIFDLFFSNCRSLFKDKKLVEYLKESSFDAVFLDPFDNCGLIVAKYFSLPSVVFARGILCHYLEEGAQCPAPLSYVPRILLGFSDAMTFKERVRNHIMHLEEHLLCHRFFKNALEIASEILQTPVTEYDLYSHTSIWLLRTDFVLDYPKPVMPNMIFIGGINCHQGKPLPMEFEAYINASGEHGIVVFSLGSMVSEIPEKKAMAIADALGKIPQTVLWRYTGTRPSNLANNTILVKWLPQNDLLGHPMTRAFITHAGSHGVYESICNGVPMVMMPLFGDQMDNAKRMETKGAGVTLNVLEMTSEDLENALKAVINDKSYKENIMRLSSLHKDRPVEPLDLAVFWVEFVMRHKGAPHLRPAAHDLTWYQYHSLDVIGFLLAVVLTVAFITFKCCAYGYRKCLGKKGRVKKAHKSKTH

Substance	tested on	test	test system	conditions	scale	quantity	result
CC(C)(C)c1cccc(-n2c(/C=C/c3ccc(C(F)(F)F)nc3)nc3ccc(N4CCCCC4)cc3c2=O)c1	Zika virus	viral replication, inhibitor	Vero	10 µM		inhibition	99%
GACATACTCT	Salmonella enterica Typhimurium	RNA-seq, refers to: acpP mRNA	peptide, SL1344	5 µM, 15 min	relative to: untreated	log2 fold change	-1.6
LHNHYT			peptide, human polyclonal IgM RF MCC	concentration not given, 5 µg/mL mAb II-481 coated, added: RF at 50% max binding concentration		inhibition	0%
Cc1ncnc2c1c(C1=CCOCC1)cn2[C@@H]1O[C@H](CO)[C@@H](O)[C@H]1O	Leishmania infantum	parasite growth, imaging	mouse Macrophage	5 days, intracellular, amastigote		EC50	2.45 µM
CTCATACTGA	Salmonella enterica Typhimurium	RNA-seq, refers to: fabF mRNA	peptide, SL1344	5 µM, 15 min	relative to: untreated	log2 fold change	-1.9
TDVDHVFLAF-NH2 (C-amide)	Drosophila melanogaster	gut contraction	adult gut	1 µM, within 10 min	relative to: DMS effect	inhibition	100%
O=C1CSC(=S)N1/N=C/c1cn(Cc2cccc(Cl)c2)c2ccc([N+](=O)[O-])cc12	Leishmania major	parasite growth, resazurin	THP-1	72 h, intracellular, amastigote		IC50	> 10 µM
CC[C@H]1OC(=O)[C@H](C)[C@@H](O[C@H]2C[C@@](C)(OC)[C@@H](O)[C@H](C)O2)[C@H](C)[C@@H](O[C@@H]2O[C@H](C)C[C@H](N(C)C)[C@H]2O)[C@](C)(O)C[C@@H](C)CN(C)[C@H](C)[C@@H](O)[C@]1(C)O	Streptococcus pyogenes		hospitalized pneumonia patients, clinical isolates	Fine score 70 or more		susceptible isolates	100%
CCOC(=O)CSc1nnc(C23CC4CC(CC(C4)C2)C3)n1-c1ccccc1	Micrococcus luteus	microbial growth, disc diffusion	IFO3232	200 µg/disc, 24 h		inhibition zone	14 mm
Cc1ccc(Cn2cc(/C=N/N3C(=O)CSC3=S)c3cc([N+](=O)[O-])ccc32)cc1	Leishmania major	parasite growth, resazurin	THP-1	72 h, intracellular, amastigote		IC50	> 10 µM
CC1(C)SC2C(NC(=O)C(NC(=O)C3=C(O)C(Cc4ccc(F)cc4)NC3=O)c3ccccc3)C(=O)N2C1C(=O)O (centres unmarked)	Escherichia coli	broth microdilution	BW25113, Mueller-Hinton broth	added: 2,2'-bipyridyl 30 µg/mL		MIC	12.5 µg/mL (≈ 21.5 µM)
COc1cccc(/C=C/c2nc3ccc(N4CCCCC4)cc3c(=O)n2-c2cccc(C(C)(C)C)c2)n1	Zika virus	viral replication, inhibitor	Vero	3 µM		inhibition	> 99.9%
O=c1c(O)c(-c2ccc(O)c(O)c2)oc2cc(O)cc(O)c12	Trypanosoma brucei	parasite growth, resazurin		trypomastigote		IC90	9.76 µg/mL (≈ 32.3 µM)
COc1ccc(-c2nc(N3CCOCC3)c3sc(CN(C)c4ncc(C(=O)NO)cn4)cc3n2)cn1	Lucilia cuprina	larval growth			relative to: diflubenzuron and dicyclanil, fold less potent	potency ratio	50 to 100 fold
YGIGVGW			peptide, human polyclonal IgM RF SOR	concentration not given, 5 µg/mL mAb II-481 coated, added: RF at 50% max binding concentration		inhibition	40%
O=c1c(O)c(-c2cc(O)c(O)c(O)c2)oc2cc(O)cc(O)c12	Human immunodeficiency virus 1	viral replication, inhibitor	TZM-bl, BAL	11.1 µM		inhibition	> 50%
O=C1CSC(=S)N1/N=C/c1cn(Cc2ccc(F)cc2)c2ccc([N+](=O)[O-])cc12	Leishmania major	parasite growth, resazurin	THP-1	72 h, intracellular, amastigote		IC50	> 10 µM
TDVDHAFLRF-NH2 (C-amide)	Drosophila melanogaster	heart rate	wandering third instar larval heart	40 nL injected, 1 µM, 10 min	relative to: DMS	inhibition	55%

Substance	tested on	test	test system	conditions	scale	quantity	result
N=C(N)N	Enterovirus D68	cytopathic effect, neutral red uptake	HeLa Ohio1, US/KY/14-18953			EC50	66 ± 22 µM
CO/N=C1\C[C@]2(C[C@@H]3C[C@@H](C/C=C(\C)C[C@@H](C)/C=C/C=C4\CO[C@@H]5[C@H](O)C(C)=C[C@@H](C(=O)O3)[C@]45O)O2)O[C@H](/C(C)=C/C(C)C)[C@H]1C	Haemonchus contortus		multidrug resistant, sheep	subcutaneous, 0.2 mg/kg, day 10 post-treatment, added: closantel 5 mg/kg		faecal egg count reduction	97%
CS(=O)(=O)c1ccc(-c2cnc(N)c(-c3ccc(C(F)(F)F)nc3)c2)cc1	Plasmodium cynomolgi	schizont (large EEF) growth	primary rhesus hepatocytes	day 5, compound added at 120 h		IC50	1.5 µM
O=C1NC(=S)S/C1=C\c1cn(Cc2ccc(F)cc2)c2ccc([N+](=O)[O-])cc12	Leishmania major	parasite growth, resazurin	THP-1	72 h, intracellular, amastigote		IC50	> 10 µM
TDVAHVFLRF-NH2 (C-amide)	Drosophila melanogaster	gut contraction	adult gut	1 µM, within 10 min	relative to: DMS effect	inhibition	91%
CC[C@H]1OC(=O)[C@H](C)[C@@H](O[C@H]2C[C@@](C)(OC)[C@@H](O)[C@H](C)O2)[C@H](C)[C@@H](O[C@@H]2O[C@H](C)C[C@H](N(C)C)[C@H]2O)[C@](C)(O)C[C@@H](C)C(=O)[C@H](C)[C@@H](O)[C@]1(C)O	Streptococcus pyogenes		hospitalized pneumonia patients, clinical isolates	Fine score 70 or more		susceptible isolates	100%
NC(=O)c1ncn([C@@H]2O[C@H](CO)[C@@H](O)[C@H]2O)n1	Enterovirus D68	virus yield reduction	RD, US/KY/14-18953	72 h		EC90	93 ± 23 µM
COc1ccc2c(C[Se][C@@H]3O[C@H](CO)[C@H](O)[C@H](O)[C@H]3O)cc(=O)oc2c1	Trypanosoma brucei brucei	flow cytometry	bloodstream form, hGrx1-roGFP2	EC50, 1 h	relative to: diamide 500 µM maximum and minimum oxidation	biosensor oxidation	20%
CC1(C)CC[C@]2(C(=O)O)CC[C@]3(C)C(=CC[C@@H]4[C@@]5(C)CC[C@H](O)[C@@](C)(CO)[C@@H]5CC[C@]43C)[C@@H]2C1	Leishmania mexicana	cell proliferation	axenic amastigotes	50 µM		inhibition	< 80%
UGT1A9 (Homo sapiens, UniProt O60656)	CCCc1ccc(O)cc1	steady-state kinetics		pH 7.4, 37 °C		Vmax/Km	42 µL/min/mg
CCN(CC)CCOc1ccc2c(=O)c3ccc(Cl)cc3[nH]c2c1	Plasmodium berghei		male C57BL/6 albino mouse	oral, liver stage, luciferase sporozoites		fully protective curative dose	160 mg/kg
TDADHVFLRF-NH2 (C-amide)	Drosophila melanogaster	heart rate	adult heart	40 nL injected, 1 µM, 10 min	relative to: DMS	inhibition	73%
O=S(=O)(c1ccc(-c2ccc3nccc(Nc4ccc(OCc5ccccc5)c(Cl)c4)c3c2)cc1)N1CCOCC1	Leishmania major		promastigotes		relative to: matched quinazoline	potency increase	2.5 fold
TDVDAVFLRF-NH2 (C-amide)	Drosophila melanogaster	heart rate	wandering third instar larval heart	40 nL injected, 1 µM, 10 min	relative to: DMS	inhibition	45%
CCOC(=O)N1CCN(Cn2nc(C34CC5CC(CC(C5)C3)C4)n(-c3ccccc3)c2=S)CC1	Micrococcus luteus	microbial growth, disc diffusion	IFO3232	200 µg/disc, 24 h		inhibition zone	14 mm
TDVDHVALRF-NH2 (C-amide)	Drosophila melanogaster	heart rate	adult heart	40 nL injected, 1 µM, 10 min	relative to: DMS	inhibition	46%
Cc1cc(C(C#N)c2ccc(Cl)cc2)c(Cl)cc1NC(=O)c1cc(I)cc(I)c1O (centres unmarked)	Haemonchus contortus		multidrug resistant, sheep	subcutaneous, 5 mg/kg, day 6 post-treatment, added: moxidectin 0.2 mg/kg		faecal egg count reduction	86%

Excerpt of the above:
Substance	tested on	test	test system	conditions	scale	quantity	result
NC(=O)c1ncn([C@@H]2O[C@H](CO)[C@@H](O)[C@H]2O)n1	Enterovirus D68	virus yield reduction	RD, US/KY/14-18953	72 h		EC90	93 ± 23 µM
TDADHVFLRF-NH2 (C-amide)	Drosophila melanogaster	heart rate	adult heart	40 nL injected, 1 µM, 10 min	relative to: DMS	inhibition	73%
TDVDAVFLRF-NH2 (C-amide)	Drosophila melanogaster	heart rate	wandering third instar larval heart	40 nL injected, 1 µM, 10 min	relative to: DMS	inhibition	45%
